# Measurements gathered from unrelated publications.
# Each line is one published result; not all experiments were run side by side. pEC50: −log10 of the molar value.
# B1: UGT1A9 (Homo sapiens, UniProt O60656); chain GKLLVVPMDGSHWFTMRSVVEKLILRGHEVVVVMPEVSWQLGRSLNCTVKTYSTSYTLEDLDREFKAFAHAQWKAQVRSIYSLLMGSYNDIFDLFFSNCRSLFKDKKLVEYLKESSFDAVFLDPFDNCGLIVAKYFSLPSVVFARGILCHYLEEGAQCPAPLSYVPRILLGFSDAMTFKERVRNHIMHLEEHLLCHRFFKNALEIASEILQTPVTEYDLYSHTSIWLLRTDFVLDYPKPVMPNMIFIGGINCHQGKPLPMEFEAYINASGEHGIVVFSLGSMVSEIPEKKAMAIADALGKIPQTVLWRYTGTRPSNLANNTILVKWLPQNDLLGHPMTRAFITHAGSHGVYESICNGVPMVMMPLFGDQMDNAKRMETKGAGVTLNVLEMTSEDLENALKAVINDKSYKENIMRLSSLHKDRPVEPLDLAVFWVEFVMRHKGAPHLRPAAHDLTWYQYHSLDVIGFLLAVVLTVAFITFKCCAYGYRKCLGKKGRVKKAHKSKTH
# B2: Mei5/Sae3 (Saccharomyces cerevisiae); chain 1 MHNQEEWLDKDKTLVNEEENTCINHSYTKKDTNNYRVGKSGIKDLKKPTNQKEIAIKNRELTKQLTLLRQENNHLQQACKILSENKIIENRKSIEKWRTICEMELSFILNSTLIKINRMGGYKDFLEKEMEAKKRRLEYQIDNGMEDQICEIKESDDFRQLSEVEKQEWESQMNEQLKELEKKKIAELEKLNKVLHDSEGKDFGMAELCTRLKLDYSLIFPQ; chain 2 MNYLETQLNKKQKQIQEYESMNGNLIKMFEQLSKEKKNDETPKKISSTYIKELKEYNELRDAGLRLAQIIADEKQCKIKDVFEEIGYSMKD
# B3: NCOA3 627-829 (Homo sapiens, UniProt Q9Y6Q9); Cy5 label; sequence looked up; chain CSSDDRGHSSLTNSPLDSSCKESSVSVTSPSGVSSSTSGGVSSTSNMHGSLLQEKHRILHKLLQNGNSPAEVAKITAEATGKDTSSITSCGDGNVVKQEQLSPKKKENNALLRYLLDRDDPSDALSKELQPQVEGVDNKMSQCTSSTIPSSSQEKDPKIKTETSEEGSGDLDNLDAILGDLTSSDFYNNSISSNGSHLGTKQQ
# Chain of UniProt O75899 (whole entry, looked up): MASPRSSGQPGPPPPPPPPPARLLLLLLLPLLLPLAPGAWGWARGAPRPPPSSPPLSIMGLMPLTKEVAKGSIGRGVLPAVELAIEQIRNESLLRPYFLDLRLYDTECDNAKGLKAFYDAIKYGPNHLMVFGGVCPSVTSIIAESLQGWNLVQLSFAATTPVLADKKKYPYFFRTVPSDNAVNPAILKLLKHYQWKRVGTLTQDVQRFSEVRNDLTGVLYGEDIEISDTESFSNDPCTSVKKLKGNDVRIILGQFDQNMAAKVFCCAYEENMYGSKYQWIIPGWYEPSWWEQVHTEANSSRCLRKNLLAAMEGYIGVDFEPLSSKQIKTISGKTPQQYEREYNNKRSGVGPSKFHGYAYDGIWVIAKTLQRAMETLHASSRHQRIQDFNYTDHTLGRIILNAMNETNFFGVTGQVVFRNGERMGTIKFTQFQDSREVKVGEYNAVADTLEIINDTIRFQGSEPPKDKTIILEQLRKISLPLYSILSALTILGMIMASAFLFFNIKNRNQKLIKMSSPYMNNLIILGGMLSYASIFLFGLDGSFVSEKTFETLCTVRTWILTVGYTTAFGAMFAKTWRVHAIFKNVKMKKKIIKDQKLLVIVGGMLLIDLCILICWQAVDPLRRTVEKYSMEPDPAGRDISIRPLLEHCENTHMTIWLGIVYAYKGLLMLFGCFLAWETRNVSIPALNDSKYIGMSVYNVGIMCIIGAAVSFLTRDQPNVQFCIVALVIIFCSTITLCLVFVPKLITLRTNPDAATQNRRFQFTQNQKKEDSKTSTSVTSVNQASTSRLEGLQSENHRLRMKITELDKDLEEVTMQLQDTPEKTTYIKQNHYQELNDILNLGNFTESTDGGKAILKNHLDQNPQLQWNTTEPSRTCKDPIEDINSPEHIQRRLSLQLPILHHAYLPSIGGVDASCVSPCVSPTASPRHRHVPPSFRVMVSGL
# Chain of UniProt P25453 (whole entry, looked up): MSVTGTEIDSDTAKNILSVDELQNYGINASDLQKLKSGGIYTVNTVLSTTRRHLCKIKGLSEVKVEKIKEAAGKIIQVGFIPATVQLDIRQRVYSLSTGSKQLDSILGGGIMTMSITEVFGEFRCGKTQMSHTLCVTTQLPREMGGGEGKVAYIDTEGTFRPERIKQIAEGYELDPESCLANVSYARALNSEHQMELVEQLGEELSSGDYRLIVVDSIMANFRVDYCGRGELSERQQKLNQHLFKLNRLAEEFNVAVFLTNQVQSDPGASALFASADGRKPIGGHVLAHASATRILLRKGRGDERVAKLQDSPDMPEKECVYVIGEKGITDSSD
# Chain of UniProt P37288 (whole entry, looked up): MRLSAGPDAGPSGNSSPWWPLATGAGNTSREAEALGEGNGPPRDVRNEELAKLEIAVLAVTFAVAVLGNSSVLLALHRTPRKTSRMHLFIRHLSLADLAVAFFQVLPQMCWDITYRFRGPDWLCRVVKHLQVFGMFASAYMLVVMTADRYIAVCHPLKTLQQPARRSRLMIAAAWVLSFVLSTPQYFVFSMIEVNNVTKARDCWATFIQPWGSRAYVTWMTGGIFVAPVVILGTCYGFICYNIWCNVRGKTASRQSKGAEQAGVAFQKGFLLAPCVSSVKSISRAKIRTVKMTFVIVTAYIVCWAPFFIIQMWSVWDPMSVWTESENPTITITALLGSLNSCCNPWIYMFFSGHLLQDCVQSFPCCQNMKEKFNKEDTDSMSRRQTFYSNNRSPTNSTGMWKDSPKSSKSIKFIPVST
# Chain of UniProt P62136 (whole entry, looked up): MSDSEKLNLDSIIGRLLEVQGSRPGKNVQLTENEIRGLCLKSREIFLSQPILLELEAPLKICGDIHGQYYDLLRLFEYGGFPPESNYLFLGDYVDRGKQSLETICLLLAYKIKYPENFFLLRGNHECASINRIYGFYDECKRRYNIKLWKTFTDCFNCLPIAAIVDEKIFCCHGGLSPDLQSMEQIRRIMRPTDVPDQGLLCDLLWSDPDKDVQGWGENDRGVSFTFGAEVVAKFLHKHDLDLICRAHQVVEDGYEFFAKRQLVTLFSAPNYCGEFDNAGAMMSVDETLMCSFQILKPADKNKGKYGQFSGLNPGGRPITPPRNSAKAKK
# Chain of UniProt Q01196 (whole entry, looked up): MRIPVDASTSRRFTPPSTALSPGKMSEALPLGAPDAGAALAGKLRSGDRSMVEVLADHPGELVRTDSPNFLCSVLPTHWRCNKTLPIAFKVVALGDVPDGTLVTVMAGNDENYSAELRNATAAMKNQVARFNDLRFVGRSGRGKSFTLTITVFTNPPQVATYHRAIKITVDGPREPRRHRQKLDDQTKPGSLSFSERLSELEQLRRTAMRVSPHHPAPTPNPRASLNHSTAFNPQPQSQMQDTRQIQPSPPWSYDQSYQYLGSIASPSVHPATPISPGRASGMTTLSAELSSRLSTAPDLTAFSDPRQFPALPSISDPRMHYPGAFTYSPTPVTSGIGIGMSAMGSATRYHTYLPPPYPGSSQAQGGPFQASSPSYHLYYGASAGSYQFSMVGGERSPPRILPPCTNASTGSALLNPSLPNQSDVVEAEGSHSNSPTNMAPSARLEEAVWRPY
# Chain of UniProt P60716 (whole entry, looked up): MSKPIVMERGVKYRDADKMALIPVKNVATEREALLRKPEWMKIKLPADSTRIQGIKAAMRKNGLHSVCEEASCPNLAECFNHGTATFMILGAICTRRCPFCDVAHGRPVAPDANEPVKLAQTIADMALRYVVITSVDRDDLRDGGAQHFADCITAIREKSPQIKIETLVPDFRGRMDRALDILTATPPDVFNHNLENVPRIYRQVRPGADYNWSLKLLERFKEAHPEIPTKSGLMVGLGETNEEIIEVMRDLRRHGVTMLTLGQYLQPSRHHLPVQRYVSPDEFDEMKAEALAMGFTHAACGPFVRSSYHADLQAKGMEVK
# Chain of UniProt P16435 (whole entry, looked up): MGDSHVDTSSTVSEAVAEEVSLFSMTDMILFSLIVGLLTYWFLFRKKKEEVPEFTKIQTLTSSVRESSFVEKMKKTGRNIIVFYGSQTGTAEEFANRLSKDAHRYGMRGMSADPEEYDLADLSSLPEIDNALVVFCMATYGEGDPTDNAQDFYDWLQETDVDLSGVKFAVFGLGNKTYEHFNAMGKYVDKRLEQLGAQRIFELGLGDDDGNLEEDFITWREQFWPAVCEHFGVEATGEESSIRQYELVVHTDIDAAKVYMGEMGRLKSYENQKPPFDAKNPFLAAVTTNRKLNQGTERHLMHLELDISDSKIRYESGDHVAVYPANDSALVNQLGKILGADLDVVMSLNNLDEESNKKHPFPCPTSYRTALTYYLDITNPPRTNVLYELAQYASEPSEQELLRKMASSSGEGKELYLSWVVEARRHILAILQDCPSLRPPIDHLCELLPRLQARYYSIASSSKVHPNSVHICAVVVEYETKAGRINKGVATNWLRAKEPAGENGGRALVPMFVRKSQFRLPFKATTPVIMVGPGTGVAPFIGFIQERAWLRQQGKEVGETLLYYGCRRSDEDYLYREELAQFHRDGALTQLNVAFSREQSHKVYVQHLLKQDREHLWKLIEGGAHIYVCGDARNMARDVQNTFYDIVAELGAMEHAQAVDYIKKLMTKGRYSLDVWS
# Chain of UniProt P23242 (whole entry, looked up): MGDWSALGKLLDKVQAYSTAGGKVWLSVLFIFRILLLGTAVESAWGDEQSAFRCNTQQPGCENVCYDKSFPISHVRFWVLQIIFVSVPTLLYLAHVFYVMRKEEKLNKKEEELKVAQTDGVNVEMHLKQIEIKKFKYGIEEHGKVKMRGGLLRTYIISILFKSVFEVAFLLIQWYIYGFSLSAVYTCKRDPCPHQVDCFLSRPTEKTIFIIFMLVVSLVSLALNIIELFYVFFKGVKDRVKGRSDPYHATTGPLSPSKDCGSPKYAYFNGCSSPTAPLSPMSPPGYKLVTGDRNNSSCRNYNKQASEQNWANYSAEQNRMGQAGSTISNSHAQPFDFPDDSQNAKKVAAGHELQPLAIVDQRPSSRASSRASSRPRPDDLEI
Molecule,target or system,test,test system,conditions,how to read,measurement,value
terlipressin,"AVPR1A (Homo sapiens, UniProt P37288)",intracellular calcium,,,"baseline: maximal activity of AVP, higher = greater efficacy",intrinsic activity,41%
CBFB/MYH11 fusion (Homo sapiens),"RUNX1 (Homo sapiens, UniProt Q01196)",ChIP,ME-1,"6 hours h, CSF1R promoter, with: AI-10-49 1 µM","baseline: DMSO, higher = more occupancy",RUNX1 occupancy,2.2 fold
B1 (UGT1A9),COc1cc(/C=C/c2ccc(O)cc2)cc(OC)c1,steady-state kinetics,,"pH 7.4, 37 °C",,Vmax/Km,1.1 µL/min/mg
B2 (Mei5/Sae3),"DMC1 (Saccharomyces cerevisiae, UniProt P25453)",smFRET,,without Ca2+,"baseline: Dmc1 alone, higher = longer dwell",dwell time of three-Dmc1 state,2 fold
CIKVAVS,,,"peptide, human polyclonal IgM RF MCC","concentration not given, 5 µg/mL mAb II-481 coated, with: RF at 50% max binding concentration",,inhibition,0%
B3 (NCOA3 627-829),"THRB/RXRA TRβ , RXRα full length 87-461 (Homo sapiens)","coregulator recruitment, tr-FRET",,"1 hr, pH 8, with: T3 µM",,pEC50,7.72
GABBR1 GABAB1b isoform (Homo sapiens),"GABBR2 42-819 (Homo sapiens, UniProt O75899)",anti-Flag M1 on intact cells,,,"baseline: full-length WT/WT heterodimer, higher = more surface expression",cell surface expression,106%
"Cltc (Mus musculus, UniProt Q68FD5)","Gja1, pS262; pS279/282; pS368 (Mus musculus, UniProt P23242)",co-IP,"mES cells, lysate",with: PD98059 plus EGF,"baseline: untreated colonies, higher = more co-precipitation",co-precipitated clathrin heavy chain,2.7 fold
"PPP1CA (Homo sapiens, UniProt P62136)","KCNT1 (Rattus norvegicus, UniProt Q9Z258-1)",co-IP,"HEK293T, lysate",in cells,"baseline: Slack alone, higher = more PP1",relative PP1 amount,48%
"CALM3 (Homo sapiens, UniProt P0DP25)","SCN5A peptide truncated IG peptide (Homo sapiens, UniProt Q14524)",whole-cell patch clamp,tsA201,with: Ca2+,,slow recovery time constant,60.1 ms
"calmodulin isoform sCaM-4 (Glycine max, UniProt Q39890)","calcineurin (Homo sapiens, UniProt Q08209)","CaN dephosphorylation of MUF-P, activator",,"20 °C, used as Ka",,EC50,38 nM
"POR (Homo sapiens, UniProt P16435)","HMOX1 R254K (Homo sapiens, UniProt P09601)",HO-1 activity,,with: HO-1 0.05 µM,,CYPOR:HO-1 ratio at peak activity,0.5 ratio
"gcvH fragment, N6-(6-mercapto-octanoyl)-lysine","lipA (Escherichia coli, UniProt P60716)",SEC,,"30 min, with: SAM 180 µM",,intermediate equivalents,0.6 equiv
NYLAWYQ,,,"peptide, human polyclonal IgM RF WEAK","concentration not given, 5 µg/mL mAb II-481 coated, with: RF at 50% max binding concentration",,inhibition,30%

# Repeated from above:
Molecule,target or system,test,test system,conditions,how to read,measurement,value
"PPP1CA (Homo sapiens, UniProt P62136)","KCNT1 (Rattus norvegicus, UniProt Q9Z258-1)",co-IP,"HEK293T, lysate",in cells,"baseline: Slack alone, higher = more PP1",relative PP1 amount,48%
"CALM3 (Homo sapiens, UniProt P0DP25)","SCN5A peptide truncated IG peptide (Homo sapiens, UniProt Q14524)",whole-cell patch clamp,tsA201,with: Ca2+,,slow recovery time constant,60.1 ms
